Measurements from different studies.
Each line is one published result; not all experiments were run side by side. Several values in a cell are separate wells, animals, samples, runs or records. ± gives the spread as reported.
Target: Cannabinoid receptor 1 (CNR1, Homo sapiens, UniProt P21554)
UniProt P21554, sequence (whole entry, looked up): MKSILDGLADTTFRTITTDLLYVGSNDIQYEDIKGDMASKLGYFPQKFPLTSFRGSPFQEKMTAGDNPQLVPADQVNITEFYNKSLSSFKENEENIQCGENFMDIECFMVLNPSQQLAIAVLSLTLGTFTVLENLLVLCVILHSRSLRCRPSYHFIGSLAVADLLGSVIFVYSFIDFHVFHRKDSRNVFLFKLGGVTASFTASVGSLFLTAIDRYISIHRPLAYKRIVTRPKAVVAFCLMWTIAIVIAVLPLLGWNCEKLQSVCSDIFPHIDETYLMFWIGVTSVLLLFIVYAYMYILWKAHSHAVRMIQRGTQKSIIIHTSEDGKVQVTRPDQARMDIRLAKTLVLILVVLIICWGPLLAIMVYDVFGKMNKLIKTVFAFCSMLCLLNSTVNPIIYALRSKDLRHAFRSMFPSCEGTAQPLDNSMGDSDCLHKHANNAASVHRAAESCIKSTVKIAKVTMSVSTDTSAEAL

With `CN1CCCCC1Cn1cc(C(=O)C23CC4CC(CC(C4)C2)C3)c2ccccc21` (stereo not shown) the EC50 was 2530 ± 805 nM (GIRK channel fluorescence, agonist; AtT20 expressing CB1).
`CC1(Cc2ccccc2)COc2ccc(C(=O)N3CCCCC3)cc21` (stereo not shown) has an EC50 of > 10000 nM (GTPγS binding, agonist; cell membranes).
`CCCCC(C)(C)c1cc(O)c2c(c1)OC(C)(C)C1CC=C(C)CC21` (stereo not shown) gave a Ki of 29.9 nM (ligand displacement, radioligand; cell membranes).
For `CCc1c(C(=O)NCCc2ccc(N3CCCCC3)cc2)[nH]c2ccc(N=C=S)cc12`, the IC50 was 48.6 nM (β-arrestin1 recruitment, negative allosteric modulator, BRET; HEK293A; 30 min, added: anandamide 500 nM).
With `COC(=O)c1ccc2c(C(CC(F)(F)F)c3cccs3)c(-c3ccccc3)[nH]c2c1` (single isomer, unassigned; (+)) the EC50 was 682 ± 211 nM (agonist; compound alone).
`CCC/C=C/CC1(C)COc2cc(C(=O)N3CCCCC3)ccc21` (stereo not shown) gave an EC50 of 856 nM (GTPγS binding, agonist; cell membranes).
`CCCCCc1ccc(-n2nc(C(=O)NN3CCCCC3)c(C)c2-c2ccc(Cl)cc2)cc1` has a Ki of 83.4 nM (ligand displacement, radioligand; cell membranes).
`CC(C)[C@H](NC(=O)c1nn(Cc2ccc(F)cc2)c2ccccc12)C(N)=O` has an EC50 of 18 nM and 18.1 nM (GIRK channel fluorescence, agonist; AtT20 expressing CB1).
For `C[C@]1(Cc2ccccc2)COc2cc(C(=O)N3CCCCC3)ccc21`, the EC50 was > 10000 nM (GTPγS binding, agonist; cell membranes).
With `CCCCCn1cc(C(=O)C2C(C)(C)C2(C)C)c2ccccc21` the EC50 was 532 ± 33.9 nM (GIRK channel fluorescence, agonist; AtT20 expressing CB1).
`CCCCC(C)c1ccc(-c2c(-c3ccc(Cl)cc3Cl)nn(N3CCCCC3)c2C)cc1` (stereo not shown) gave a Ki of 1.3 nM (ligand displacement, radioligand; cell membranes).
For `CCc1c(C(=O)NCCc2ccc(N3CCCCC3)cc2)[nH]c2ccc(Cl)cc12`, the IC50 was 940 nM (cAMP signalling, negative allosteric modulator; mean over orthosteric agonists).
With `CCCCCCC[C@@H](C/C=C/CCC(=O)N(C)C/C(=C/Cl)C/C(=C\C(=O)N1CC(O)CC1=O)OC)OC` (stereo partly shown) the EC50 was 5300 nM (cAMP, agonist).

For quick reference, copied from above:
For `CCc1c(C(=O)NCCc2ccc(N3CCCCC3)cc2)[nH]c2ccc(N=C=S)cc12`, the IC50 was 48.6 nM (β-arrestin1 recruitment, negative allosteric modulator, BRET; HEK293A; 30 min, added: anandamide 500 nM).
With `CCCCCn1cc(C(=O)C2C(C)(C)C2(C)C)c2ccccc21` the EC50 was 532 ± 33.9 nM (GIRK channel fluorescence, agonist; AtT20 expressing CB1).
